Assay results pooled from the literature.
Parts stem from different laboratories: compare values within a part only. Changes are numbered by the printed parent chain.

Series 1
Target: Histone acetyltransferase KAT6A, both winged helices, GST fusion (KAT6A, Homo sapiens, UniProt Q92794, residues 1-181)
Method: protein binding microarray
Molecule type: double-stranded DNA, one strand shown
Matrix: in vitro
Concentration: not given
Setting: 8-mer, flanks averaged, mean of 2 arrays, mostly near background
Relative to: not given
Reading: higher = stronger binding
Quantity: E-score
Construct (chain): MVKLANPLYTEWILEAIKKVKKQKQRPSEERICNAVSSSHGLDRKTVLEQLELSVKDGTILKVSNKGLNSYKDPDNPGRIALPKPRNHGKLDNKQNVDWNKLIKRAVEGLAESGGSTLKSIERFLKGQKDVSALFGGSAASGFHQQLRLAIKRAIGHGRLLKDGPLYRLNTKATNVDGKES
AAGACCGA: 0.137
TACTTCGA: 0.07
CATCTGCA: -0.0872
GCTTACCC: -0.0149
AGTGTAGC: -0.0448
GTCGCTTA: 0.14
CACCGACG: 0.277
ATAGATTC: -0.148
AACGGCTC: 0.198
CCAAGACA: -0.177
CCGCTAAC: 0.157
TCACGCAA: 0.0739
AATAATCC: -0.0344
CTCGGGTA: -0.00161
GGGCTCAA: 0.038
GAACCACC: -0.086
AAAATCCG: 0.0383
GAGGGCGA: 0.0274
CACGCCAC: -0.0159
CAGTTAAA: -0.169
TATACCGA: 0.087
AATACCAG: -0.209
GTTCTCGA: -0.0796
AAGCTGGA: -0.187

Series 2
Target: Interferon regulatory factor 3, full length, phosphomimetic (IRF3, Homo sapiens, UniProt Q14653, residues 1-427, S386D/S396D/S398D/S402D/T404D/S405D)
Method: protein-binding microarray
Molecule type: double-stranded DNA, one strand shown
Matrix: in vitro
Concentration: 2540 nM top
Setting: 60-bp whole probe
Added: salmon DNA 0.4 mg/ml
Relative to: random background probes
Reading: higher = stronger binding
Quantity: fitted relative affinity
Shared flanks, not repeated: GCCTAGCAC … GTCTTGATTCGCTTGACGCTGCTG
Construct (chain): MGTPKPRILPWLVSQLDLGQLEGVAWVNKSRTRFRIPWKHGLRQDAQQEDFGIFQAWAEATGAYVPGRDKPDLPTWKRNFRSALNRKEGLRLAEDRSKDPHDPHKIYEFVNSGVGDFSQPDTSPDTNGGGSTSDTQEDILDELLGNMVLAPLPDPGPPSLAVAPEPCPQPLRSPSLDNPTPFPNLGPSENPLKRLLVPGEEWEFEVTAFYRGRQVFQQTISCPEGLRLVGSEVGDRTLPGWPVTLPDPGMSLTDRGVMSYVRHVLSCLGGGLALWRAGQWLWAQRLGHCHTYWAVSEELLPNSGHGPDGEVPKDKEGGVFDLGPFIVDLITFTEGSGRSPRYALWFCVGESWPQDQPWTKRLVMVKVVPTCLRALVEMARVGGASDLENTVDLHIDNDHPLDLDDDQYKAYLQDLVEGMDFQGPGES
TTAGGTTTCCTTTCCCCTTAGTGCTAG: 10.6 z-score
GACGATAACAGACTGGAGACGTGCTAG: -0.315 z-score
GACGGAGTGCTTATCCTGACGTGCTAG: -0.201 z-score
GACGATTTCAGTTTCGAGACGTGCTAG: 4.97 z-score
GACGGGTTCCTTATCCTGACGTGCTAG: 2.78 z-score
TTAGGTATCCTTCTCCTTAAGTGCTAG: 7.55 z-score
TTAGGCCTCGGTATCGGTTAGTGCTAG: 0.796 z-score
TTAGGTATCCTGCTGCTTTAGTGCTAG: 0.492 z-score
TCAATTTTTTTTCACTAACTGTGCTAG: 0.668 z-score
GACGGTATCGACTATCGGGGCGTGCTA: 0.345 z-score
GAGGGTATCCTTCTCCTGACGTGCTAG: 5.63 z-score
TTAGGTGTCGGTATCGGTTAGTGCTAG: 3.85 z-score
TTAGATCTCAGGATCGATTAGTGCTAG: 0.198 z-score
GACGGACTGGCTTTCGGGACGTGCTAG: -0.209 z-score
TTAGGACTGCTTTTCCGTTAGTGCTAG: 0.0185 z-score
TCAAGGTTCTCTTTTATACTGTGCTAG: 1.39 z-score
GGTGTCTAGGTTAGGGATTAGTGCTAG: -0.264 z-score

Series 3
Target: ABI1, truncated, D143A, DHFR fusion (Arabidopsis thaliana)
Method: DHFR PCA, deep sequencing
Matrix: yeast
Setting: methotrexate growth selection, single substitutions
Added: (+)-ABA 1.4 µM
Relative to: wild-type fitted maximum
Reading: higher = stronger binding
Quantity: relative binding score
Parent: PYL1, truncated, DHFR fusion (Arabidopsis thaliana); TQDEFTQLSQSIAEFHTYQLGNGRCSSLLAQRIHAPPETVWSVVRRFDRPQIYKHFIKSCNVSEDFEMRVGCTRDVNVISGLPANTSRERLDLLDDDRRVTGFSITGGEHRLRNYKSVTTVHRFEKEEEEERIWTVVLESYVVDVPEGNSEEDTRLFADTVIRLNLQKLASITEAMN
Q19L: 31.6%
T135A: 14.2%
I105A: 2.59%
D75Q: 69%
T160F: 62.6%
D3R: 41.4%
D144C: -25.5%
N77M: 60.8%
G23Y: 12.7%
A30V: 53.4%
E14F: -18.6%
G23R: 40.1%
T39S: 35%
N165W: 12.1%
L93P: 6.89%
L91V: -1.62%
F157I: 0.565%
L20K: 53.3%
D75W: 62.6%
L156I: 30.9%
I133V: 78.5%
F15N: 3.19%
E127F: 53.8%
G102S: 48%
T120V: -2.42%

Series 4
Organism: Saccharomyces cerevisiae
Read-out: binding
Method: yeast competitive growth sequencing
Molecule type: peptide
Setting: cyclin B2-Cln2 chimera
Reading: direction not given
Quantity: enrichment score
DWDTVERQEEEAPSWD: 1.32
SCCKRKLVVGNGPEGP: -1.38
VSRNLRSSLKSSLHTL: -1.85
ARKRLELGNLGNPQ: -0.623
PPTFLSTGEIHAFLSS: -0.152
TTTTSPRTPPPLTVQD: 0.874

Excerpt of the above (series 2):
GACGGACTGGCTTTCGGGACGTGCTAG: -0.209 z-score
GGTGTCTAGGTTAGGGATTAGTGCTAG: -0.264 z-score
TCAATTTTTTTTCACTAACTGTGCTAG: 0.668 z-score
TTAGGTGTCGGTATCGGTTAGTGCTAG: 3.85 z-score
GACGGAGTGCTTATCCTGACGTGCTAG: -0.201 z-score
TTAGGTTTCCTTTCCCCTTAGTGCTAG: 10.6 z-score
GACGGTATCGACTATCGGGGCGTGCTA: 0.345 z-score
TCAAGGTTCTCTTTTATACTGTGCTAG: 1.39 z-score
GACGATAACAGACTGGAGACGTGCTAG: -0.315 z-score
GACGGGTTCCTTATCCTGACGTGCTAG: 2.78 z-score
TTAGGTATCCTGCTGCTTTAGTGCTAG: 0.492 z-score
TTAGGTATCCTTCTCCTTAAGTGCTAG: 7.55 z-score
